Published values pooled from the literature.
Every numbered part comes from another study and shows a few of its results, in no order.
UniProt Q12866, sequence (whole entry, looked up): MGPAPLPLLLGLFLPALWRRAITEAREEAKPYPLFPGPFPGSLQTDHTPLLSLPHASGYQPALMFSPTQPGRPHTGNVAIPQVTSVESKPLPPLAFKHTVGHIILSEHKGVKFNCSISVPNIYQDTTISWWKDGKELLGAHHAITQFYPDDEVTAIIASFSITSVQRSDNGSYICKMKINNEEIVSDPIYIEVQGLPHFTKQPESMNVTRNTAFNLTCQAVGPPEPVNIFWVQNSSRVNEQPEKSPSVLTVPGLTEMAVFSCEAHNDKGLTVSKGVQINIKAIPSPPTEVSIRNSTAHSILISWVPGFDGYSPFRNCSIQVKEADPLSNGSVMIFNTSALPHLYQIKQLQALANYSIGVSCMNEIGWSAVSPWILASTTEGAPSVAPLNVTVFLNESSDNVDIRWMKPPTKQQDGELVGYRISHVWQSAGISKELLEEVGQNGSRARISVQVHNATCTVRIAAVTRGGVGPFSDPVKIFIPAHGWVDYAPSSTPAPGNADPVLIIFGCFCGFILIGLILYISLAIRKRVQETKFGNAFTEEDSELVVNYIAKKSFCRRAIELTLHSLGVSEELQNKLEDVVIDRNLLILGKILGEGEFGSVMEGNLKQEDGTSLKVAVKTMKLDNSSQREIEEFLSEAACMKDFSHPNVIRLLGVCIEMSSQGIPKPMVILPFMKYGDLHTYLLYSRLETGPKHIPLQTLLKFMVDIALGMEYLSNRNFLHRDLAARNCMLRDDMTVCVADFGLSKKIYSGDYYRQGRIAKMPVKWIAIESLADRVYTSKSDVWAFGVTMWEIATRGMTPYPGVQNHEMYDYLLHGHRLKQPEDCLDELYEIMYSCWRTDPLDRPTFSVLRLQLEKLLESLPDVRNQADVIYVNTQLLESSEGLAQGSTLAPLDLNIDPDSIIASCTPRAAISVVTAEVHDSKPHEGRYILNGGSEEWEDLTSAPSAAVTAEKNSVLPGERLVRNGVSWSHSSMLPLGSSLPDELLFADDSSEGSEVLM
UniProt Q6ZN16, sequence (whole entry, looked up): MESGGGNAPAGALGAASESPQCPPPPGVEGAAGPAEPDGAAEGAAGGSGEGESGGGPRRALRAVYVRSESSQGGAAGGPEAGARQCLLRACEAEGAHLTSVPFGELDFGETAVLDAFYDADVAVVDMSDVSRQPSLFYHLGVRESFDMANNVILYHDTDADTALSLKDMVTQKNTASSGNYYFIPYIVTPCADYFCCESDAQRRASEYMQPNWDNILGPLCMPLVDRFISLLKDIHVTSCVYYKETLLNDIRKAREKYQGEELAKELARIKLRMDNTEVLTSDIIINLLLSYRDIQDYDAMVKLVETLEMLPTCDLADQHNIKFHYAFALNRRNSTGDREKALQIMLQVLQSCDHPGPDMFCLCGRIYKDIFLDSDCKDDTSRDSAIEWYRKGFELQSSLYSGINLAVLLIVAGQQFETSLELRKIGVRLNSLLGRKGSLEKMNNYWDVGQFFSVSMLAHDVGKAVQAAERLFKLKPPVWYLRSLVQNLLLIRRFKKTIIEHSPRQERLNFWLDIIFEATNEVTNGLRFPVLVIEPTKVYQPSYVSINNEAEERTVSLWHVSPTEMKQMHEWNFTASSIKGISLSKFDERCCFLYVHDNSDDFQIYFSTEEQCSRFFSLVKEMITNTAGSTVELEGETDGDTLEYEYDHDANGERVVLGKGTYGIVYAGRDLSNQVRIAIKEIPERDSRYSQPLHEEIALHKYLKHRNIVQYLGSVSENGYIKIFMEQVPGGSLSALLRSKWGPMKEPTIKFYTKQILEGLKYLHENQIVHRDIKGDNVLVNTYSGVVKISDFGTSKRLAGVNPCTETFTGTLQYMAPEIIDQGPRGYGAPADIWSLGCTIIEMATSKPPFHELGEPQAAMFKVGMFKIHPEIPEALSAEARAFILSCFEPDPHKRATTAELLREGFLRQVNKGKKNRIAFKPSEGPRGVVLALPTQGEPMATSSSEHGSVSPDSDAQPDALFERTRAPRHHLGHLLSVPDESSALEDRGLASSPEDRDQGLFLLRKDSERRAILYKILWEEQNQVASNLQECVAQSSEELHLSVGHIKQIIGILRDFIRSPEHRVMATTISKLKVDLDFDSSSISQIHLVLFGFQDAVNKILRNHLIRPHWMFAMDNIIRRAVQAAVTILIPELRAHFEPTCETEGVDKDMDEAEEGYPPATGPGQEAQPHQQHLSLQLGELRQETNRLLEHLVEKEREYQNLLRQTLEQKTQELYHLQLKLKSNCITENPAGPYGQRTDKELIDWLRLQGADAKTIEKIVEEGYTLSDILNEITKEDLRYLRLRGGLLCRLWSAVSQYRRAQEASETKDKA
UniProt Q6XUX3, sequence (whole entry, looked up): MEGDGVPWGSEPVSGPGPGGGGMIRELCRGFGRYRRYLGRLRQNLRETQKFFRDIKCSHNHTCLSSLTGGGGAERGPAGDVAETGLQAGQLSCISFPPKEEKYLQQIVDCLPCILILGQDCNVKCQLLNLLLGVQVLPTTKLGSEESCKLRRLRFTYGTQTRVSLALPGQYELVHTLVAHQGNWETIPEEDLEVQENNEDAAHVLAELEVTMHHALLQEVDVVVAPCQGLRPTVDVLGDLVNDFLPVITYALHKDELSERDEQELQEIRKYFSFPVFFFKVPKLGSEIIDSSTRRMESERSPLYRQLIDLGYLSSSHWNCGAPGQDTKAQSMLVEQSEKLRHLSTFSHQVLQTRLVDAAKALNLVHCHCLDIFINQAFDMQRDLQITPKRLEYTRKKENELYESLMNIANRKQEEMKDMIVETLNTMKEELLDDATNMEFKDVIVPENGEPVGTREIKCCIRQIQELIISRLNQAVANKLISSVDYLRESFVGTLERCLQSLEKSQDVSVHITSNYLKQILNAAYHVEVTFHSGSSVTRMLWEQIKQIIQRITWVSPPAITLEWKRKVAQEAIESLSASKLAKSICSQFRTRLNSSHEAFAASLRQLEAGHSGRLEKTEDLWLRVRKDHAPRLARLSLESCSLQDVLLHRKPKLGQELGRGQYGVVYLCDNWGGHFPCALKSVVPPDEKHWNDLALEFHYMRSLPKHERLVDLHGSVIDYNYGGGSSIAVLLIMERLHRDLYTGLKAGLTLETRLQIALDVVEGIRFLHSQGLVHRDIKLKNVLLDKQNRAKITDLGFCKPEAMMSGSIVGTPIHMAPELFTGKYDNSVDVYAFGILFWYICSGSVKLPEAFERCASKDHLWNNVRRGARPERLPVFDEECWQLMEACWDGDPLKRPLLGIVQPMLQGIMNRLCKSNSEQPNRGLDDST
UniProt Q8TF76, sequence (whole entry, looked up): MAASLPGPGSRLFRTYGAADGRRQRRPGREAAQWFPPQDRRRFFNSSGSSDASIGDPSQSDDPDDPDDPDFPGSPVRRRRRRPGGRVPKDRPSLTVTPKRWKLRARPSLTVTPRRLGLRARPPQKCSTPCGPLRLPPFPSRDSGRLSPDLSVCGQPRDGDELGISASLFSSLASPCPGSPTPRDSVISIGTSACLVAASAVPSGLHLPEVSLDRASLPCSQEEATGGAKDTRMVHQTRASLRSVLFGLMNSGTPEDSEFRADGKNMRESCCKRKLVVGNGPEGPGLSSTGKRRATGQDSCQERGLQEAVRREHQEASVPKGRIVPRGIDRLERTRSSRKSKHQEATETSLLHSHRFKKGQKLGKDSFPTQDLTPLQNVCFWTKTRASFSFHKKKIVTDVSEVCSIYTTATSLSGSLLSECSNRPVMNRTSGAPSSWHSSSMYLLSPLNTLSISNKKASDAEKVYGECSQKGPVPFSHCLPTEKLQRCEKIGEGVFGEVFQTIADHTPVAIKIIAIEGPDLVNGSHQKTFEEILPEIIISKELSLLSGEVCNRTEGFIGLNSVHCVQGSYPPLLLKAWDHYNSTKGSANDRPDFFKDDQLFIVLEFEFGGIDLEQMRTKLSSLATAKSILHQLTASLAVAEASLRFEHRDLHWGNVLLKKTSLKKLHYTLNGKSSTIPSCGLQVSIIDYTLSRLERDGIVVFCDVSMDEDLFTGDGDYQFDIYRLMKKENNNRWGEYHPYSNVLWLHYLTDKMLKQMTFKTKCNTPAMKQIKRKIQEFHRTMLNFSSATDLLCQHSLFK
UniProt Q9BVS4, sequence (whole entry, looked up): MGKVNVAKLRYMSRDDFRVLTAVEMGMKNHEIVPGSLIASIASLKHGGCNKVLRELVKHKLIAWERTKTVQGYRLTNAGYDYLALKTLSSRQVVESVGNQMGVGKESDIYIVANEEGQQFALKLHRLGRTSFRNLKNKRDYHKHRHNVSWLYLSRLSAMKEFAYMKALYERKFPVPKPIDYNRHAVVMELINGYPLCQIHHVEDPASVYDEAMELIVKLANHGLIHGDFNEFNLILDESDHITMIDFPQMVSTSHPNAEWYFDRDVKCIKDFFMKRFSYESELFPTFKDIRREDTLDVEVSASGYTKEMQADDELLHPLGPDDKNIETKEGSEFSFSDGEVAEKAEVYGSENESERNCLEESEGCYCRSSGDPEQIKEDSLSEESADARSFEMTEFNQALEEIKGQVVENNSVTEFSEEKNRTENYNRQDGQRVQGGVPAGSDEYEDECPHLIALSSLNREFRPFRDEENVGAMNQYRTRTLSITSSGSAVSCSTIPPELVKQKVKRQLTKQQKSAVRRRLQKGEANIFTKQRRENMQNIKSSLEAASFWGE

Set 1 — effect on: cell-free assay; technique: competition with immobilised ligand; concentration: 1 µM
SMILES: O=C(O)[C@@H]1[C@@H](Cn2nnc3ccccc3c2=O)CC[C@H]1C(=O)c1ccc(OCCC2CCOCC2)cc1
For Dual serine/threonine and tyrosine protein kinase (DSTYK, Homo sapiens, UniProt Q6XUX3): remaining binding read 84%.
For Mitogen-activated protein kinase kinase kinase 15 (MAP3K15, Homo sapiens, UniProt Q6ZN16): remaining binding read 54%.
The remaining binding was 91% (Mitogen-activated protein kinase kinase kinase kinase 1 (MAP4K1, Homo sapiens, UniProt Q92918)).
For Phosphatidylinositol 4,5-bisphosphate 3-kinase catalytic subunit alpha isoform (PIK3CA, Homo sapiens, UniProt P42336, H1047Y): remaining binding read 94%.
For Serine/threonine-protein kinase RIO2 (RIOK2, Homo sapiens, UniProt Q9BVS4): remaining binding read 88%.
For Serine/threonine-protein kinase Nek10 (NEK10, Homo sapiens, UniProt Q6ZWH5): remaining binding read 88%.
The remaining binding was 88% (Serine/threonine-protein kinase haspin (HASPIN, Homo sapiens, UniProt Q8TF76)).
It gave 100% for remaining binding (Tyrosine-protein kinase Mer (MERTK, Homo sapiens, UniProt Q12866)).
It gave 100% for remaining binding (Receptor-type tyrosine-protein kinase FLT3 (FLT3, Homo sapiens, UniProt P36888, D835V/ITD)).
For Non-receptor tyrosine-protein kinase TYK2, JH2 (TYK2, Homo sapiens, UniProt P29597): remaining binding read 100%.
The remaining binding was 91% (Cyclin-dependent kinase 8 (CDK8, Homo sapiens, UniProt P49336)).

Set 2 — effect on: enzyme activity; action: inhibitor; concentration: 0.5 µM; relative to: control
Target: Tyrosine-protein kinase Lyn, isoform B (LYN, Homo sapiens, UniProt P07948)
UniProt P07948, sequence (whole entry, looked up): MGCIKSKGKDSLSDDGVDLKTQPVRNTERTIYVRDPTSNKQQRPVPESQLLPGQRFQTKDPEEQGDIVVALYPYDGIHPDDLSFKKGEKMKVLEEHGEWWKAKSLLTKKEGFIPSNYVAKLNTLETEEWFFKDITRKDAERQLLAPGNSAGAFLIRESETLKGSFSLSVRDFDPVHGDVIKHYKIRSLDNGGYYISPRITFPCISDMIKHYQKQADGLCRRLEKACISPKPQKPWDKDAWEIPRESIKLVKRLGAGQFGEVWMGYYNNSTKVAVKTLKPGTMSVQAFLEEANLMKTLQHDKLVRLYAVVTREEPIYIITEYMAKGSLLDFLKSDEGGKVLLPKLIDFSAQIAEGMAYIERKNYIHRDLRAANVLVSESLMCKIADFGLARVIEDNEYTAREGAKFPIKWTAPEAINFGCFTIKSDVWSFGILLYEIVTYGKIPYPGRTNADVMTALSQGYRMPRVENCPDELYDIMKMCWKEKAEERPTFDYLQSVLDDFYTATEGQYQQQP
The remaining activity of `O=C(NC(NC(=S)Nc1ccc(F)c([N+](=O)[O-])c1)C(Cl)(Cl)Cl)C(c1ccccc1)c1ccccc1` (stereo not drawn) is reported as 116%.
`COc1cc2c(cc1OC)-c1[nH]nc(Nc3cccc(F)c3)c1C2` gave a remaining activity of 77.5%.
`c1ccc(-c2cnc(Nc3ccc(OCCN4CCCC4)cc3)s2)cc1` has a remaining activity of 87.5%.
`Cn1nc2c3c(cccc31)C(=O)c1ccccc1-2` gave a remaining activity of 97.7%.
`O=C1C(Cl)=C(N2C(=O)CCC2=O)C(=O)c2ccccc21` gave a remaining activity of 97%.
The remaining activity of `CCN(CC)CCNC(=O)c1c(C)[nH]c(/C=C2\C(=O)Nc3ccc(F)cc32)c1C` is reported as 34.6%.
With `COc1cc2ncnc(Nc3cccc(Cl)c3)c2cc1OC` the remaining activity was 71.7%.
The remaining activity of `CN(C)C[C@H]1CCn2c(c(C3=C(c4cn(C)c5ccccc45)C(=O)NC3=O)c3ccccc32)C1` is reported as 98.3%.
The remaining activity of `O=c1cc(-c2cccc3c2Sc2ccccc2S3)oc(N2CCOCC2)c1` is reported as 116%.

Set 3 — cell line: HaCaT; concentration: 100 µM; time: 36 h
For `O=C(CCCCCCC(=O)Nc1ccccc1)NO`, the viability was 5.65%.
The viability of `NS(=O)(=O)c1cc2c(cc1Cl)NCNS2(=O)=O` is reported as 82.4%.
For `CC(C(=O)O)c1ccc2c(c1)Cc1cccnc1O2` (stereo not drawn), the viability was 80.7%.
For `CN(C)[C@@H]1C(O)=C(C(N)=O)C(=O)[C@@]2(O)C(O)=C3C(=O)c4c(O)ccc(Cl)c4[C@@H](O)[C@H]3C[C@@H]12`, the viability was 87.8%.
The viability of `c1ccc(Cc2nc3ccccc3[nH]2)cc1` is reported as 86.7%.

Set 4 — species: mouse; sample: microsomes or S9; concentration: 2 µM; time: 0.5 h
The remaining compound of `CC(C)(CO)NCc1ccc(-c2cc(Cl)cc(Cl)c2)o1` is reported as 2.3%.
For `Cc1ccc(C2CC(=O)Nc3c2c(C)nn3-c2ccc(N3CCCCC3)nn2)cc1C` (stereo not drawn), the remaining compound was 26.6%.
`O=C(c1c(F)cccc1F)N(Cc1n[nH]c(=O)[nH]1)c1ccccc1` has a remaining compound of 63.7%.
`Cc1ccc(CNS(=O)(=O)c2cc(-c3ccc(=O)[nH]n3)cc(C)c2C)cc1` gave a remaining compound of 0.772%.
For `c1cc2c(ccn2-c2ccc3ccnc(N4CCCC4)c3c2)cn1`, the remaining compound was 5.01%.

For quick reference, copied from above (set 4):
`O=C(c1c(F)cccc1F)N(Cc1n[nH]c(=O)[nH]1)c1ccccc1` has a remaining compound of 63.7%.
For `c1cc2c(ccn2-c2ccc3ccnc(N4CCCC4)c3c2)cn1`, the remaining compound was 5.01%.
`Cc1ccc(CNS(=O)(=O)c2cc(-c3ccc(=O)[nH]n3)cc(C)c2C)cc1` gave a remaining compound of 0.772%.
The remaining compound of `CC(C)(CO)NCc1ccc(-c2cc(Cl)cc(Cl)c2)o1` is reported as 2.3%.
